Results collected from several papers.
Each numbered part is a random draw from the data of one study; scales do not carry over between parts.

Set 1
Target: RING finger protein unkempt homolog, zinc fingers 1-6, SBP tag (UNK, Homo sapiens, UniProt Q9C0B0, residues 30-357)
Chain of UniProt Q9C0B0 (30-357, looked up): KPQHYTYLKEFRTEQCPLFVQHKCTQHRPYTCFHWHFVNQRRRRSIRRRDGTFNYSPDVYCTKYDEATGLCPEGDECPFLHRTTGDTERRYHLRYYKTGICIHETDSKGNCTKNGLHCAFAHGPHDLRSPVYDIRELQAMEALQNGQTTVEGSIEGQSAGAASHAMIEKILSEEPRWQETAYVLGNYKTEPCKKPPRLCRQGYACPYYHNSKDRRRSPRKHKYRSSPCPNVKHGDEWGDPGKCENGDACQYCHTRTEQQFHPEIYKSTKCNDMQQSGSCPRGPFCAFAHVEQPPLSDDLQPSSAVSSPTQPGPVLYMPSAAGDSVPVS
Technique: RNA Bind-n-Seq
Molecule type: RNA
Matrix: in vitro
Tested at: 100 nM
Notes: RNA with constant flanks, vertebrate orthologous sites, ends assumed
Relative to: input RNA pool
Direction: higher = stronger binding
Quantity: bound/input enrichment
GGGAGUUCUACAGUCCGACGAUCUACUAGCGUCAUACCAGCAUAUUAACUAGUCAUAUGUGCACAGCUUAAAAGGUAACAGUUUAGUUAUAUUUUUUAAUUUAAGAACGGCUUUUUCCCAAGACUGAAAAAGAAGCUACAAUUCAACAGAGGAUUGAGCAUCA: 2.58 ratio
GGGAGUUCUACAGUCCGACGAUCAAAUUCCCCCAUUGUCACUGAGAACCACCAAAUCUGACUUUUACAUUUGGUCUCAGAAUUUAGGUUCCUGCCCUGUUGGGUUUUUUUUUUUUUUUUAAAAAAAAAAACCAGUUUUCAAAACAACAGAGGAUUGAGCAUCA: 0.655 ratio
GGGAGUUCUACAGUCCGACGAUCUUGGAUGAGGGUAGAGGGGAGGGAGGGGCAGGAUAGUAUGGAAUCUCUAGGGUGUUAUGGGUAGGUAGGGGAAACAGUUCUAAGUGGGCCUUUGUUAAAAACCUCUGGAGGUGUCUGUUCCAACAGAGGAUUGAGCAUCA: 0.854 ratio
GGGAGUUCUACAGUCCGACGAUCUCCCAGCACUUUGAUAAAAAGUGUGGACUGGUUGCUUGUAUUUUCCUUAUUCUUUUUAAUUAGUUUUAUUAUGUAUGCUACCAUUCGAACUGAGAGUAUUCGGUGGCUAAUUCCAGGACACAACAGAGGAUUGAGCAUCA: 3.47 ratio

Set 2
Target: Histone acetyltransferase KAT6A, winged helix 2, GST fusion (KAT6A, Homo sapiens, UniProt Q92794, residues 85-181)
Technique: protein binding microarray
Molecule type: double-stranded DNA, one strand shown
Matrix: in vitro
Tested at: not given
Notes: 8-mer, flanks averaged, mean of 2 arrays, mostly near background
Relative to: not given
Direction: higher = stronger binding
Quantity: E-score
Target sequence (chain): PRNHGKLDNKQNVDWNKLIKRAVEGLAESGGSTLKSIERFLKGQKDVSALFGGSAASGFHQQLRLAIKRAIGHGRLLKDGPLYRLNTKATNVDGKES
AGCTTACG: -0.0593
CAGTTATC: -0.186
CTATCCCA: -0.111
AACTAACA: -0.0312

Set 3
Target: Hepatocyte nuclear factor 3-beta, forkhead domain (FOXA2, Homo sapiens, UniProt Q9Y261, residues 142-269)
Technique: protein-binding microarray
Molecule type: double-stranded DNA, one strand shown
Matrix: in vitro
Tested at: not given
Notes: k-mer, scored over probes, only values ≥0.25
Direction: higher = stronger binding
Quantity: E-score
Construct (chain): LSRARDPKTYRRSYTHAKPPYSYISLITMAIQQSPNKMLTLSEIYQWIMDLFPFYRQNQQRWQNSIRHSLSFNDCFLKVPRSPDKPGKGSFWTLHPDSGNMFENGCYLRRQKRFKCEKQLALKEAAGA
ATAGACAA: 0.323
AAGTATGT: 0.317
ACTATAAG: 0.262
GTAATTAC: 0.35
AATAATTC: 0.292

Mixed results
PhoQ, residues 284 288 289 292 302 303 SLSLLA
fold induction (PhoP, residues 12 14 15 18 19 IQSYL (Escherichia coli, UniProt P23836); Sort-seq, measured: YFP reporter; E. coli; PhoQ-PhoP variant library, with: 10 µM Mg2+; relative to: high Mg2+ state, higher = stronger signaling): 48

For quick reference, copied from above (set 1):
GGGAGUUCUACAGUCCGACGAUCAAAUUCCCCCAUUGUCACUGAGAACCACCAAAUCUGACUUUUACAUUUGGUCUCAGAAUUUAGGUUCCUGCCCUGUUGGGUUUUUUUUUUUUUUUUAAAAAAAAAAACCAGUUUUCAAAACAACAGAGGAUUGAGCAUCA: 0.655 ratio
